# Published values of several laboratories.
# Protocols differ between the studies behind these lines. Values joined by “and” are separate records of one study, mostly repeats; a detail may differ. ± gives the spread as reported.
# SLC22A11: Solute carrier family 22 member 11 (SLC22A11, Homo sapiens, UniProt Q9NSA0)
# UCHL1: Ubiquitin carboxyl-terminal hydrolase isozyme L1 (UCHL1, Homo sapiens, UniProt P09936)
# Nicotinic acetylcholine receptor alpha1/beta1/epsilon/delta: Nicotinic acetylcholine receptor alpha1/beta1/epsilon/delta (Mus musculus, UniProt P02716+P04756+P09690+P20782)
# Sequence of UniProt P09690 (whole entry, looked up): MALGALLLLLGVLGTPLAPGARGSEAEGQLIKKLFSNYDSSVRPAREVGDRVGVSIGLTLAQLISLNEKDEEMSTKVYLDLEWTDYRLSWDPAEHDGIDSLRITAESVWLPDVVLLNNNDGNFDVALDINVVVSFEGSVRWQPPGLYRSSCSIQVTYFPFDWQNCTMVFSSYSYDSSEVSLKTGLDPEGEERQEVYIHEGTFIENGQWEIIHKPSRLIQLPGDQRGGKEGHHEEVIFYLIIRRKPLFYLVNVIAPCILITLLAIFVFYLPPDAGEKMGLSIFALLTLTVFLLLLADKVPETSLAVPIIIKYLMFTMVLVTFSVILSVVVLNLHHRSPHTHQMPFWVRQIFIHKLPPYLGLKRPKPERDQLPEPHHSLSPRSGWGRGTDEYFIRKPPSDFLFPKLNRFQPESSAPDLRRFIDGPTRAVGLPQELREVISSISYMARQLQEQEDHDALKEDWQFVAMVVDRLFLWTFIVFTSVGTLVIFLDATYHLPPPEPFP
# Sequence of UniProt P20782 (whole entry, looked up): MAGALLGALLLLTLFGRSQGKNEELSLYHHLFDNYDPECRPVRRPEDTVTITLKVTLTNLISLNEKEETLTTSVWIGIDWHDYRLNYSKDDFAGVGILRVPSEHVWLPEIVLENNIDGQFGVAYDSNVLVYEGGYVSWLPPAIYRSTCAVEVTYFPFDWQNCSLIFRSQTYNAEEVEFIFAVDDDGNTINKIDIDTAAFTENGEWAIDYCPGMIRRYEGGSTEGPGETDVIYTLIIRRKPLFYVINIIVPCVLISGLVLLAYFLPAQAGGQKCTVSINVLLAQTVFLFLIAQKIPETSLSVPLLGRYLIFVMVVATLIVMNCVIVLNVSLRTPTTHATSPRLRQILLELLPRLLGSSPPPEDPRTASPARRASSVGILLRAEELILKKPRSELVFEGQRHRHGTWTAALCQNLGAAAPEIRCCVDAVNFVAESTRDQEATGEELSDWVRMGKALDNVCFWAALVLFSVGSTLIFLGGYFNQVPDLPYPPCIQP
# ALB: Albumin (ALB, Homo sapiens, UniProt P02768)
# Sequence of UniProt Q9EP73 (whole entry, looked up): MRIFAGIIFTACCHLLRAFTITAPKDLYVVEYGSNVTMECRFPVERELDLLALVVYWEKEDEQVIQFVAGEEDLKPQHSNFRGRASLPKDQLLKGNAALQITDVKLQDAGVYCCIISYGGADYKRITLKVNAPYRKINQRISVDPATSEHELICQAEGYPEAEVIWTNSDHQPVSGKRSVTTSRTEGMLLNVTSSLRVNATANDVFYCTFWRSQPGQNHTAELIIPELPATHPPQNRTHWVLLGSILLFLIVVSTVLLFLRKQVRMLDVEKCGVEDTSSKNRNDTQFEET
# Sequence of UniProt P42866 (whole entry, looked up): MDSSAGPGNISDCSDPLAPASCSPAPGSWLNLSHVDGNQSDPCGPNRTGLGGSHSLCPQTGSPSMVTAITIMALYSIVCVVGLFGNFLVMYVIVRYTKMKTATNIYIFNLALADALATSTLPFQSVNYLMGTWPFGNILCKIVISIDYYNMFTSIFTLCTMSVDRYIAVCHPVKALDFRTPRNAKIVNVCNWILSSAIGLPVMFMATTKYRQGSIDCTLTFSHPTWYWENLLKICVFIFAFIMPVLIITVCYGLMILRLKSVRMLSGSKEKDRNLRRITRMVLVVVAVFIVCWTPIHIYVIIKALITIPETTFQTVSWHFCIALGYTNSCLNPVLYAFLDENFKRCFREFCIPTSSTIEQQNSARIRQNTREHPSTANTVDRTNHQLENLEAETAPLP
# Sequence of UniProt P48542 (whole entry, looked up): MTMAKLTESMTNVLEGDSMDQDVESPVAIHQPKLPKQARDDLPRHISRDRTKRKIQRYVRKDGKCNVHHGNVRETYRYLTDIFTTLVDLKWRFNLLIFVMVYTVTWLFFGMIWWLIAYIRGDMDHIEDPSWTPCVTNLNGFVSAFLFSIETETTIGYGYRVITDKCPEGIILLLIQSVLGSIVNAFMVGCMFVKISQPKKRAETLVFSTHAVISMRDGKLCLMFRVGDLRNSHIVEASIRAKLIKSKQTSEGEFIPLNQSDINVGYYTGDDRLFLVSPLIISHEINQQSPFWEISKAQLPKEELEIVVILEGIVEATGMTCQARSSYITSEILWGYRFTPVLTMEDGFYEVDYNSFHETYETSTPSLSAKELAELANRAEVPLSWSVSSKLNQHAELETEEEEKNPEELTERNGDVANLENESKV
# Sequence of UniProt A5GZW8 (whole entry, looked up): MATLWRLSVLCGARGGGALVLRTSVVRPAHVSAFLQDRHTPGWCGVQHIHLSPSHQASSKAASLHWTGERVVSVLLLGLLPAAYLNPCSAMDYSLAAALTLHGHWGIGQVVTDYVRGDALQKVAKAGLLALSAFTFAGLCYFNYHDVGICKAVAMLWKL
# Sequence of UniProt Q6PIU2 (whole entry, looked up): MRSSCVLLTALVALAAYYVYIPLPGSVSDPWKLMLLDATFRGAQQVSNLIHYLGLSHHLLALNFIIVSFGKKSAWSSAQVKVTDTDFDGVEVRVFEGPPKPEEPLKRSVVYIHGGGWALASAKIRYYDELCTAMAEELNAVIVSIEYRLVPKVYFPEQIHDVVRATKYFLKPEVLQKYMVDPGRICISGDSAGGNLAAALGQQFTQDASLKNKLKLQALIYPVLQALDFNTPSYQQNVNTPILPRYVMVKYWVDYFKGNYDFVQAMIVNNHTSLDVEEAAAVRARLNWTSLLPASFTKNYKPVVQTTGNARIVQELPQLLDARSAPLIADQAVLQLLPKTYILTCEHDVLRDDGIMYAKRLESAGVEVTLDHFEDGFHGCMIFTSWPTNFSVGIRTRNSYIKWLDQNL
# Sequence of UniProt D0VWV4 (whole entry, looked up): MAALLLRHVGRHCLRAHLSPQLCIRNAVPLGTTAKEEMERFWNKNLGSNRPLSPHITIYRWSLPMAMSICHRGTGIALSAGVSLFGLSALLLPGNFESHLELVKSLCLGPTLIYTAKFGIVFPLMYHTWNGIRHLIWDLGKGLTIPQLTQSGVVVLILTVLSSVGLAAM
# Sequence of UniProt P63250 (whole entry, looked up): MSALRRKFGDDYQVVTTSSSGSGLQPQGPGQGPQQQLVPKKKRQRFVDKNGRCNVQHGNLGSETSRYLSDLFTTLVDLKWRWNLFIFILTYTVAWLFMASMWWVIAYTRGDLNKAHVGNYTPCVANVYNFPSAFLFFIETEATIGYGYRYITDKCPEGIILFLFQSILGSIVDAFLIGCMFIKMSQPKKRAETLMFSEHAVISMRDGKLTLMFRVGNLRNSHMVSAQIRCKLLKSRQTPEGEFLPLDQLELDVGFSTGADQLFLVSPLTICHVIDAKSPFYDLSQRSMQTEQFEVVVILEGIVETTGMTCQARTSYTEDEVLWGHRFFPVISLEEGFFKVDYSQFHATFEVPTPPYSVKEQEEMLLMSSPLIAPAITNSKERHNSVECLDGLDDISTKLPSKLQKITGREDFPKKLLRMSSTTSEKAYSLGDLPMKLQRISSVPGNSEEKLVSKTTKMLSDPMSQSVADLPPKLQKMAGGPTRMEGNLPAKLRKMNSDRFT
# Sequence of UniProt Q007T0 (whole entry, looked up): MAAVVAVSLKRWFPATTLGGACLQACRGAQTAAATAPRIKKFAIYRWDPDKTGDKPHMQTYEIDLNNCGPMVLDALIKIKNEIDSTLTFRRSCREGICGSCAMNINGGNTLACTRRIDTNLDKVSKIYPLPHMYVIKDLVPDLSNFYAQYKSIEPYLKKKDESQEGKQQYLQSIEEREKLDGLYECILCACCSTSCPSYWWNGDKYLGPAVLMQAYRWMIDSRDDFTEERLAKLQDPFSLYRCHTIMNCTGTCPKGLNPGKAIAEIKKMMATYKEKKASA
# Sequence of UniProt P77488 (whole entry, unmodified, looked up): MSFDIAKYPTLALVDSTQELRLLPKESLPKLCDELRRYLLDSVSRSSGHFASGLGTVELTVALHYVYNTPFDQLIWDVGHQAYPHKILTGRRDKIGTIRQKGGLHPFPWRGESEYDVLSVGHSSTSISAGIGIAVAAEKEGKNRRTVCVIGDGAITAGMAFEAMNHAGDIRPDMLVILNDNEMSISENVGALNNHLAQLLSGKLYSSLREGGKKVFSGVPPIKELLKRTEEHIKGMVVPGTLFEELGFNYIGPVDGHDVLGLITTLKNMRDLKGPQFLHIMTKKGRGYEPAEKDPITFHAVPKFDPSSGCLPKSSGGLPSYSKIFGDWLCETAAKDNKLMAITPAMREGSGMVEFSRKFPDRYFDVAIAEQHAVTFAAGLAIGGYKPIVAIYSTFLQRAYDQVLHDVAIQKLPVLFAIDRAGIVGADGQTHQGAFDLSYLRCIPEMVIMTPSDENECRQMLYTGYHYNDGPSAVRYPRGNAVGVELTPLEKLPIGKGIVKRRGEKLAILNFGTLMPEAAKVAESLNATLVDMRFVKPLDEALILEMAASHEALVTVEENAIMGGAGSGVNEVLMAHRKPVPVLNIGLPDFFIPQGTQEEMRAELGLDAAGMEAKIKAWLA
SMILES,target,test,test system,setting,scale,measurement,value
CC(=O)NC[C@H]1[C@H](O)[C@H](O)[C@@H]2[C@H](O)C[C@@H](CO)N21,human placental β-N-acetylglucosaminidase,,,"0.02575 µM, run 1, added: p-nitrophenyl GlcNAc",,inhibition,79.6%
C[C@]12CC[C@@H]3c4ccc(OS(=O)(=O)O)cc4CC[C@H]3[C@@H]1CCC2=O,SLC22A11,substrate,CHO cells expressing human OAT4,"5 min, pH 7.4",,Jmax,12.3 ± 0.2 pmol/cm2/min
Cc1ccc(C(=O)CCl)o1,UCHL1,"covalent, intact protein LC-MS",,12.5 µM,,labelling,2.63%
CC(C)(O/N=C(\C(=O)N[C@@H]1C(=O)N2C(C(=O)[O-])=C(C[N+]3(CCNC(=O)c4ccc(O)c(O)c4Cl)CCCC3)CS[C@H]12)c1csc(N)n1)C(=O)O,"Metallo-beta-lactamase type 2 (Serratia marcescens, UniProt P52699)","substrate, UV spectrophotometry",,"pH 7.5, 30 °C",,Km,302 µM
O=C(O)C(F)(F)C(F)(F)C(F)(F)C(F)(F)C(F)(F)C(F)(F)C(F)(F)F,SLC22A11,"substrate, uptake",HEK293 stably expressing SLC22A11,"2.5 min, pH 6.8, 37 °C, two-transporter model",,Jmax,300 ± 26 pmol/min/mg protein
COc1ccc(F)cc1C(=O)NCc1ccc(-c2nn([C@@H](C)C(F)(F)F)c(N)c2C(N)=O)cc1,"YES1 (Homo sapiens, UniProt P07947)",enzyme activity,,,reference: YES1 over BTK,selectivity ratio,49.8
Cc1ncsc1-c1ccc([C@H](CC(=O)N2CCN(c3ccc(C#Cc4ccc(C(=O)N5CCC(n6cc(-c7ccc8c(c7)CCN8C(=O)Cc7cccc(OC(F)(F)F)c7)c7c(N)ncnc76)CC5)cc4)cn3)CC2)NC(=O)[C@@H]2C[C@@H](O)CN2C(=O)[C@@H](NC(=O)C2(F)CC2)C(C)(C)C)cc1,"RIPK1 (Homo sapiens, UniProt Q13546)",degrader,"nude mice, Jurkat xenograft, tumour","intravenous, 10 mg/kg, 24 h, single dose",,protein reduction,> 70%
Cc1cc(NC(=O)Nc2ccc(F)c(F)c2)n(-c2ccccc2)n1,"Kcnj6/Kcnj3 (Mus musculus, UniProt P48542+P63250)","membrane hyperpolarisation, membrane potential dye fluorescence",AtT20 cells,30 µM,,membrane potential change,37.6% and 47.4% and 34.8% and 36.4% and 40.6% and 34.1%
CC(=O)N[C@H](C(=O)N1C[C@H](O)C[C@H]1C(=O)NCc1ccc(-c2scnc2C)cc1)C(C)(C)SCCCCCCNC(=O)C[C@@H]1N=C(c2ccc(Cl)cc2)c2c(sc(C)c2C)-n2c(C)nnc21,"Bromodomain-containing protein 4, BD2 (BRD4, Homo sapiens, UniProt O60885, A384K/E383V/K378Q)",ITC,,"concentration not given, 25 °C",,binding stoichiometry,0.69 ± 0.01
CC(=O)P(=O)(O)OCCc1cn([C@H](Cc2ccccc2)C(=O)O)nn1,"dxs (Escherichia coli, UniProt P77488, R99A)",,,"concentration not given, variant enzyme",reference: wild type,Ki fold change,~29 fold
Cc1nn(C)cc1-c1nc2c(N3CCN(Cc4ccc(Cl)cc4)CC3)c(Cl)cnc2[nH]1,"RIOK1 (Homo sapiens, UniProt Q9BRS2)",KINOMEscan,,1 µM,reference: DMSO control,remaining binding,9.2%
C=C(CN(C(=O)c1c(C(F)F)nn(C)c1F)C1CC1)c1ccc(Cl)cc1Cl,"SDHD/SDHC/SDHB (Sus scrofa, UniProt A5GZW8+D0VWV4+Q007T0)","enzyme activity, inhibitor, DCIP reduction",pig,"0.4 µM, added: DCIP 5 µM",,reaction velocity,0.000918 µM/s and 0.000956 µM/s and 0.00126 µM/s
C[N+]1(C)CCN(c2cccc(C(F)(F)F)c2)CC1.[I-],Nicotinic acetylcholine receptor alpha1/beta1/epsilon/delta,"ion current, inhibitor, two-electrode voltage clamp",Xenopus oocytes,"30 µM, after co-application, unit not given, added: ACh 30 µM",reference: ACh alone,ACh response,0.62 ± 0.212
O=C(O)c1cccc(C(=O)O)n1,"VIM-2 (Escherichia coli, UniProt Q5U7L7)","enzyme activity, inhibitor",,added: nitrocefin,,kon,5000 ± 1670 M⁻¹ s⁻¹
O=C(Nc1cccnn1)N1CCC(=Cc2cccc(Oc3ccc(C(F)(F)F)cn3)c2)CC1,"Faah (Rattus norvegicus, UniProt P97612)","probe labelling, inhibitor, competitive ABPP with azido-FP probe",rat brain membrane fraction,0.01 µM,,inhibition,75.1%
O=C(O)C(F)(F)C(F)(F)C(F)(F)C(F)(F)C(F)(F)C(F)(F)C(F)(F)F,ALB,ITC,,"25 °C, first binding site, added: HSA 20 µM",,association constant,9.3e+06 M⁻¹
NC(=O)c1csc(C(=O)CCl)c1,UCHL1,"covalent, intact protein LC-MS",,12.5 µM,,labelling,23.7%
CC[N+]1(CC)CCN(c2ccc(OC)cc2)CC1,Nicotinic acetylcholine receptor alpha1/beta1/epsilon/delta,"ion current, inhibitor, two-electrode voltage clamp",Xenopus oocytes,"30 µM, after co-application, unit not given, added: ACh 30 µM",reference: ACh alone,ACh response,0.419 ± 0.153
CC(C)[C@@H](O)CC[C@@H](C)[C@H]1CC[C@H]2[C@@H]3CC=C4C[C@@H](O)CC[C@]4(C)[C@H]3CC[C@]12C,"Glutamate NMDA receptor; GRIN1/GRIN2B (GRIN1/GRIN2B, Homo sapiens, UniProt Q05586+Q13224, V564A)","positive allosteric modulator, two-electrode voltage clamp",Xenopus oocytes expressing GluN2B-V564A,"10 µM, 0.02% cremophor, added: 100 µM glutamate and glycine",reference: without compound,current response,238 ± 11%
CN(C(=O)n1cnc(-c2ccc[n+]([O-])c2)c1)C1CCCCC1,"Lysosomal phospholipase A and acyltransferase (Pla2g15, Rattus norvegicus, UniProt Q675A5)","enzyme activity, ABPP","rat, brain","oral, 100 mg/kg/day, 7 days",reference: vehicle,fold change,-2.4
Brc1ccc(COc2ccccc2CNCc2ccccc2)cc1,"Aminoglycoside N(3)-acetyltransferase IV (aacC4, Salmonella sp, UniProt P08988)","neomycin acetylation, inhibitor",,added: neomycin,,highest concentration without inhibition,> 200 µM
O=c1[nH]c2ccccc2n1C1CCN(Cc2ccc(-c3[nH]c4cc5ncnc5cc4nc3-c3ccccc3)cc2)CC1,"TRPM8 (Homo sapiens, UniProt Q7Z2W7)",antagonist,HEK293,5 µM,,remaining activity,83.9 ± 8.93%
CN(C(=O)n1cnc(-c2ccc[n+]([O-])c2)c1)C1CCCCC1,"AMPA receptor, rat",binding,,"10 µM, added: [3H]AMPA",,inhibition,2%
Nc1ncc(-c2nc(N3CCOCC3)nc(N3CCOCC3)n2)c(C(F)F)n1,"Ribosomal protein S6 kinase alpha-2, N-terminal kinase domain (RPS6KA2, Homo sapiens, UniProt Q15349)",KINOMEscan,,10 µM,,remaining binding,44%
C[C@H]1CN(c2n[nH]c3nc(N[C@H]4CC[C@H](NS(=O)(=O)CCC(F)(F)F)CC4)ncc23)CCO1,"Large ribosomal subunit protein uL5 (Homo sapiens, UniProt P62913)","Kinobeads competition, refers to: RPL11",,"0.8 µM, unit not given",reference: vehicle,remaining binding,1.2
COc1ccc(N2C(=O)N(c3c(C)cccc3Cl)Cc3cnc(Nc4ccc(C5CCN(C)CC5)cc4OC)nc32)nc1,"MAPK3 (Homo sapiens, UniProt P27361)",kinase activity,,0.5 µM,,inhibition,4.41%
O=C(O)[C@@H]1CS[C@H]2CS[C@H](CCS)N21,"sfhI (Serratia fonticola, UniProt Q9RMI1)",activity class,,concentration not given,,activity,inactive
COc1cc(N)c(Cl)cc1C(=O)NC1CN2CCC1CC2 (stereo not shown),"Proto-oncogene Mas (Homo sapiens, UniProt P04201)","β-arrestin recruitment, TANGO luminescence, refers to: MAS1",,concentration not given,reference: basal luminescence,log2 fold change,-0.008
CN1CCN(c2cc(-c3ccncc3)c(-c3ccc4ccccc4c3)nn2)CC1,"AVPR1A (Homo sapiens, UniProt P37288)","agonist, FLIPR",,12.5 µM,,activation,-4%
COc1cc(Nc2ncc(F)c(Nc3ccc4c(n3)NC(=O)C(C)(C)O4)n2)cc(OC)c1OC,"SIK1 (Homo sapiens, UniProt P57059)","kinase binding, KINOMEscan",,10 µM,,inhibition,100%
[2H]c1c([2H])c([C@]2([2H])CCCN2C(=O)C(C)(C)Oc2ccc3cn[nH]c3c2)c([2H])c([2H])c1C([2H])([2H])[2H],"EPHB2 (Homo sapiens, UniProt P29323)",KINOMEscan,,1 µM,reference: DMSO control,remaining binding,100%
C[C@@H](NC(=O)[C@@H](N)Cc1ccc(O)cc1)C(=O)NCC(=O)N(C)[C@@H](Cc1ccccc1)C(=O)NCCO,"Oprm1 (Mus musculus, UniProt P42866)",agonist,mouse spinal cord membranes,5.62 µM,reference: basal binding,GTPγS binding,2.4% and 1.85% and 8.37% and 3.3%
O=C(c1ccc(Cl)cc1)N1CCN2C(=O)N(OC(=O)N3CCOc4ccccc43)C(=O)C2C1 (stereo not shown),"NCEH1 (Homo sapiens, UniProt Q6PIU2)",MS-based ABPP,SW-620 conditioned medium,"10 µM, 1 h, 37 °C","reference: compound over DMSO, lower = more inhibition",peptide ratio,1.24 and 1.35 and 1.14 and 1.41 and 1.37 and 1.33
O=C(Nc1cnccc1Cl)N1CCN(Cc2ccc3c(c2)OC(F)(F)O3)CC1,"muscarinic receptor, rat",binding,,"50 µM, added: [3H]oxotremorine M",,inhibition,13%
COc1cc(-c2[o+]c3cc(O)cc(O)c3cc2O[C@@H]2O[C@H](CO)[C@@H](O)[C@H](O)[C@H]2O)cc(OC)c1O,ALB,van't Hoff analysis,,concentration not given,,binding entropy change,0.05 kJ/(mol·K)
CC(=O)P(=O)(O)OCCc1cn([C@H](Cc2ccccc2)C(=O)O)nn1,"dxs (Escherichia coli, UniProt P77488)",time-dependent inhibition,,"23 °C, added: 250 µM D-GAP, 100 µM pyruvate",,k2 reverse isomerisation rate,0.14 min⁻¹
CC[C@@H](C)[C@@H](NC(=O)[C@@H](Cc1ccc(O)cc1)NC(=O)[C@H]1CCCN1C(=O)[C@@H](CCCNC(=N)N)NC(=O)[C@H](N)Cc1c[nH]cn1)C(=O)N[C@H](C)C(=O)N[C@H](Cc1c[nH]cn1)C(=O)N[C@H](CCCNC(=N)N)C(=O)N[C@H](CCCCNC(=O)c1cccc(S(=O)(=O)F)c1)C(=O)N[C@H](Cc1ccc(O)cc1)C(=O)N[C@H](CO)C(=O)N[C@H](Cc1ccccc1)C(N)=O,"Programmed cell death 1 ligand 1, with PD-1 (Cd274, Mus musculus, UniProt Q9EP73)",PD-1-Fc binding,B16,"concentration not given, 48 h",,PD-L1 blocking rate,17.4% and 55.2% and 47.4%

# Some of these lines once more:
SMILES,target,test,test system,setting,scale,measurement,value
CN1CCN(c2cc(-c3ccncc3)c(-c3ccc4ccccc4c3)nn2)CC1,"AVPR1A (Homo sapiens, UniProt P37288)","agonist, FLIPR",,12.5 µM,,activation,-4%
O=C(O)C(F)(F)C(F)(F)C(F)(F)C(F)(F)C(F)(F)C(F)(F)C(F)(F)F,SLC22A11,"substrate, uptake",HEK293 stably expressing SLC22A11,"2.5 min, pH 6.8, 37 °C, two-transporter model",,Jmax,300 ± 26 pmol/min/mg protein
Nc1ncc(-c2nc(N3CCOCC3)nc(N3CCOCC3)n2)c(C(F)F)n1,"Ribosomal protein S6 kinase alpha-2, N-terminal kinase domain (RPS6KA2, Homo sapiens, UniProt Q15349)",KINOMEscan,,10 µM,,remaining binding,44%
